Measurements collected from several papers.
Parts stem from different laboratories: compare values within a part only.
Chain of UniProt O43353 (whole entry, looked up): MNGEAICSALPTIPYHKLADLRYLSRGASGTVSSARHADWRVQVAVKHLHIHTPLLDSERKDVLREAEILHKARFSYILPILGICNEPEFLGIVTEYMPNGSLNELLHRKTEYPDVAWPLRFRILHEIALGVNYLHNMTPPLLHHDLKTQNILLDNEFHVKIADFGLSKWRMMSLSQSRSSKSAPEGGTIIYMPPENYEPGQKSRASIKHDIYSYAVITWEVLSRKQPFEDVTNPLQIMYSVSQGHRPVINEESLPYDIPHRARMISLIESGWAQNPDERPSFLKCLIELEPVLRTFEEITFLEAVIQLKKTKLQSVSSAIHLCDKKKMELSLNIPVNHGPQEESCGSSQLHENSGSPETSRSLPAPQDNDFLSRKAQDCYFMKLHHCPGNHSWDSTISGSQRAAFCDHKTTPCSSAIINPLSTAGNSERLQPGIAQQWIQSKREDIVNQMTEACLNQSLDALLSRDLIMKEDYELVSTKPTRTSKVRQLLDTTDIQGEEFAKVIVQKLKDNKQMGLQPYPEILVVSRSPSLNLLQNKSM
Chain of UniProt O94768 (whole entry, looked up): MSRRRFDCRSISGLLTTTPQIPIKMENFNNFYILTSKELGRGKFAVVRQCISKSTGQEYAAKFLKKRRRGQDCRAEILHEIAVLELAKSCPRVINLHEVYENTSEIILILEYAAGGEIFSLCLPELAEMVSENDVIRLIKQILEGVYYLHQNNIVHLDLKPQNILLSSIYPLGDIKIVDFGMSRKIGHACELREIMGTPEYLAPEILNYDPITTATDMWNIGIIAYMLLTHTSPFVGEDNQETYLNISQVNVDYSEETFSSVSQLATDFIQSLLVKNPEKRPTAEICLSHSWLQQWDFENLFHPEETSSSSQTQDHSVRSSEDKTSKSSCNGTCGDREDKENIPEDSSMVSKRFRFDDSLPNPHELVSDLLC
Chain of UniProt Q9H4B4 (whole entry, looked up): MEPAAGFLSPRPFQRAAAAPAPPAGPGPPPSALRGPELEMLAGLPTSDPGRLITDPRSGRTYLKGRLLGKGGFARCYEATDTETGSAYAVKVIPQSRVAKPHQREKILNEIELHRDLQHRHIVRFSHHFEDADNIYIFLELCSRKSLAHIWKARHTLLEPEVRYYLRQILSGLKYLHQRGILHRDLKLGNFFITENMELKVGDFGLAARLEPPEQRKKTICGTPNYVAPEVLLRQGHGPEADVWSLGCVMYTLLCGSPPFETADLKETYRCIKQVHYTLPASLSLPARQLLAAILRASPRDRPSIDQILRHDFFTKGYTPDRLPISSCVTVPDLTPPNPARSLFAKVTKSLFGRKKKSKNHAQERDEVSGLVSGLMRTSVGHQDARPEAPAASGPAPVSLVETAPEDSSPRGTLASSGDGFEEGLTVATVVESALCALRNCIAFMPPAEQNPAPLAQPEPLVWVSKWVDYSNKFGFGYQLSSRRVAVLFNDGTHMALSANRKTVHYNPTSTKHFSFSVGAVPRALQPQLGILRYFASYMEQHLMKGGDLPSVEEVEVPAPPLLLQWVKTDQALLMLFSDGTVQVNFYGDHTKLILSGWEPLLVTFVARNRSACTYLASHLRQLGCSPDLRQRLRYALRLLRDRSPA
Chain of UniProt P20794 (whole entry, looked up): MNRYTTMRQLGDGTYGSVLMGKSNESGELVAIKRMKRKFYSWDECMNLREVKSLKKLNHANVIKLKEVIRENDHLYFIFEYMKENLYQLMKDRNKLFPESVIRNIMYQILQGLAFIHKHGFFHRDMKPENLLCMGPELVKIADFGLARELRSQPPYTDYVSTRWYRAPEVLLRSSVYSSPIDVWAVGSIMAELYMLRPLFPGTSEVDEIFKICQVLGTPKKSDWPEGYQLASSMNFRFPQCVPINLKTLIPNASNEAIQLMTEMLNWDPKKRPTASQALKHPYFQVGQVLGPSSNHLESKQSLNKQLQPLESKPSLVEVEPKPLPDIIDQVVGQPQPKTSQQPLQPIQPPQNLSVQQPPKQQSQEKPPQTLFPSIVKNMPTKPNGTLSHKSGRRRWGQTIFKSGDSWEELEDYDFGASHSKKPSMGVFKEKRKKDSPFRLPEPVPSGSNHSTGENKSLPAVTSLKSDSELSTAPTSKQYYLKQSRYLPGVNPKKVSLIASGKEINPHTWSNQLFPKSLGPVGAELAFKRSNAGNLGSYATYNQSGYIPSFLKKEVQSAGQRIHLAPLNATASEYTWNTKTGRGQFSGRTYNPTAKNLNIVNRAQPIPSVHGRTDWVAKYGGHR
Chain of UniProt Q9HCP0 (whole entry, looked up): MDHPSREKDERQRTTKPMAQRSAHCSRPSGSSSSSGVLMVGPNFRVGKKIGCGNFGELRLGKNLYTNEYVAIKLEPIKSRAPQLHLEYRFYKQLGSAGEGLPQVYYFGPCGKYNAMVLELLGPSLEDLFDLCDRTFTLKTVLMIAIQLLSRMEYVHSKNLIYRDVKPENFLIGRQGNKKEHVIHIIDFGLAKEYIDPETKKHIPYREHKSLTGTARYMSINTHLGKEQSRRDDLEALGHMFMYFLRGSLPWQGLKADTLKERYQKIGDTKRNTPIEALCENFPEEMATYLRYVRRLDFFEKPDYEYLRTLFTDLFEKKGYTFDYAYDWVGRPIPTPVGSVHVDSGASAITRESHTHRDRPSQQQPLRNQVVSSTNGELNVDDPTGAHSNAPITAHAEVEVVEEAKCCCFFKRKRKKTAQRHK
Chain of UniProt Q8TDR2 (whole entry, looked up): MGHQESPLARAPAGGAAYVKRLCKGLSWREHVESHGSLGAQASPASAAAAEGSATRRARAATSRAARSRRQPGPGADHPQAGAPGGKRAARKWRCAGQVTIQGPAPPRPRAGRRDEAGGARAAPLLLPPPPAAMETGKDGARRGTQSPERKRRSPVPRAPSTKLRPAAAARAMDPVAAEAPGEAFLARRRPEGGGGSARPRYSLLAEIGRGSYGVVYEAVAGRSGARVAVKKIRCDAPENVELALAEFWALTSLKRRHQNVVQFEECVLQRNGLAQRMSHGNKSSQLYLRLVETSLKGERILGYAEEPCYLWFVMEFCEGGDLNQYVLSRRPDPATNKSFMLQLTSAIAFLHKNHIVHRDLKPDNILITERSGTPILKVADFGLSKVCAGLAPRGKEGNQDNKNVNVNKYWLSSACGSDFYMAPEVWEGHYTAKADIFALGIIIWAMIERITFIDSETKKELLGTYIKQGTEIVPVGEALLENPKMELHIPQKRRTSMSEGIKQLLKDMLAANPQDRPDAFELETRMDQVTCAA
Chain of UniProt Q6P2M8 (whole entry, looked up): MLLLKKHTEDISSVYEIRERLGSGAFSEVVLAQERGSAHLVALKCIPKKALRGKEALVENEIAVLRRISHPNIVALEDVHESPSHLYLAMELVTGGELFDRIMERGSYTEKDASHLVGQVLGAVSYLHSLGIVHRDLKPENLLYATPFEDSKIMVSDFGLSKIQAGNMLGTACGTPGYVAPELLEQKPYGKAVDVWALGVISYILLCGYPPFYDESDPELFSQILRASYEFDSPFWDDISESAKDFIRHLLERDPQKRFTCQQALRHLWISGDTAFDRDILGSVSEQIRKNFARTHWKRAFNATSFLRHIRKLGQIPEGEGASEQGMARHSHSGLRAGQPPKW

Block 1
Compound: N#Cc1ccc(Nc2ccc3[nH]c(=O)[nH]c3c2)c(Cl)c1
Technique: competition with immobilised ligand
Tested at: 1 µM
Measurement: remaining binding
STK35 (Homo sapiens, UniProt Q8TDR2); cell-free assay: 100%
CDK11B (Homo sapiens, UniProt P21127); cell-free assay: 100%
FLT3 (Homo sapiens, UniProt P36888, N841I); cell-free assay: 77%
EGFR (Homo sapiens, UniProt P00533, G719C); cell-free assay: 100%
EPHA2 (Homo sapiens, UniProt P29317); cell-free assay: 84%
BRAF (Homo sapiens, UniProt P15056); cell-free assay: 100%
MATK (Homo sapiens, UniProt P42679); cell-free assay: 100%
FES (Homo sapiens, UniProt P07332); cell-free assay: 100%
RIPK2 (Homo sapiens, UniProt O43353); cell-free assay: 70%
GRK2 (Homo sapiens, UniProt P25098); cell-free assay: 100%
PNCK (Homo sapiens, UniProt Q6P2M8); cell-free assay: 78%
STK24 (Homo sapiens, UniProt Q9Y6E0); cell-free assay: 100%
GSK3A (Homo sapiens, UniProt P49840); cell-free assay: 100%
PTK2 (Homo sapiens, UniProt Q05397); cell-free assay: 100%
PTK2B (Homo sapiens, UniProt Q14289); cell-free assay: 100%
PRKACA (Homo sapiens, UniProt P17612); cell-free assay: 96%
PLK3 (Homo sapiens, UniProt Q9H4B4); cell-free assay: 84%
MERTK (Homo sapiens, UniProt Q12866); cell-free assay: 100%
PIK3CA (Homo sapiens, UniProt P42336, H1047L); cell-free assay: 78%
PKMYT1 (Homo sapiens, UniProt Q99640); cell-free assay: 100%
STK38L (Homo sapiens, UniProt Q9Y2H1); binding: 53%
STK17B (Homo sapiens, UniProt O94768); cell-free assay: 100%
MAK (Homo sapiens, UniProt P20794); binding: 100%
PTK6 (Homo sapiens, UniProt Q13882); cell-free assay: 100%
CSNK1G1 (Homo sapiens, UniProt Q9HCP0); cell-free assay: 100%

Block 2
Target: Serine/threonine-protein kinase ULK1 (ULK1, Homo sapiens, UniProt O75385)
Chain of UniProt O75385 (whole entry, looked up): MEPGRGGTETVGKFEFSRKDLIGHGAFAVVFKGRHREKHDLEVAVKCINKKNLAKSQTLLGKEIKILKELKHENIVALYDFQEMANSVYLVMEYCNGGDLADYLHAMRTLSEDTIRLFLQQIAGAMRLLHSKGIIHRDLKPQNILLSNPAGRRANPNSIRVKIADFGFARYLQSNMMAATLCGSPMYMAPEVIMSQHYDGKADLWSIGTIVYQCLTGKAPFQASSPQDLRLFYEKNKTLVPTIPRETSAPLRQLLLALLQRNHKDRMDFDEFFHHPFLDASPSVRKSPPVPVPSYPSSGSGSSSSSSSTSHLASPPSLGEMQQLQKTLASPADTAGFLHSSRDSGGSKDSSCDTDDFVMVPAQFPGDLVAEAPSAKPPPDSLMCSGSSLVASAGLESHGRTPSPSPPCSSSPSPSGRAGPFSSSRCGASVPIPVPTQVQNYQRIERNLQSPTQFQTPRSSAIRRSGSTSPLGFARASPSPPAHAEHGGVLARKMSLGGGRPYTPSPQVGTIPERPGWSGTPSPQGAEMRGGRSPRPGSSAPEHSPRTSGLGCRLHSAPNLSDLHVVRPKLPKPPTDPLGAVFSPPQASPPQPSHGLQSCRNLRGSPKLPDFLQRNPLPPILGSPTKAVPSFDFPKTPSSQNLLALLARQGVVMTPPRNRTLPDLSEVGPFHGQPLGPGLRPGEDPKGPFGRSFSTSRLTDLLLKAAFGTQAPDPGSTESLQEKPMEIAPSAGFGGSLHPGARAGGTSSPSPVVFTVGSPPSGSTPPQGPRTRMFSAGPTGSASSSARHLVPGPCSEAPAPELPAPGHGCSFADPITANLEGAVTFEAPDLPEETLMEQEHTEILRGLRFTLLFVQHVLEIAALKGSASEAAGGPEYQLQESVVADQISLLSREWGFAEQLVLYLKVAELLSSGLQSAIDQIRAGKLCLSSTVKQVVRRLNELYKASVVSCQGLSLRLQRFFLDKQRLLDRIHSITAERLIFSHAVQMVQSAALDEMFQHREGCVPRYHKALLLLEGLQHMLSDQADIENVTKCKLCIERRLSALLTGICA
Observed: enzyme activity
Action: inhibitor
Tested at: 0.5 µM
Relative to: control
Measurement: remaining activity
COc1cc(Nc2c(C#N)cnc3cc(OCCCN4CCN(C)CC4)c(OC)cc23)c(Cl)cc1Cl: 79.1%
O=C1NC(=O)C(c2c[nH]c3ccccc23)=C1c1c[nH]c2ccccc12: 105%
CCCC(=O)Oc1ccc2[nH]c(C(=O)c3cc4ccccc4[nH]3)cc2c1: 103%
CSc1nc(-c2ccnc(N[C@@H](C)c3ccccc3)c2)c(-c2ccc(F)cc2)[nH]1 (racemic): 110%
Oc1ccc(Nc2nc(-c3ccc(Cl)cc3)cs2)cc1: 84.2%
CC(=O)c1ccc(N2CCOCC2)cc1O: 94.8%
Cc1cc(Nc2nc(-c3ccccc3)nc3ccccc23)n[nH]1: 81.1%
Cc1cncc2cccc(S(=O)(=O)N3CCCN(C(=O)CN)C[C@@H]3C)c12: 51.8%
CC#CC(=O)Nc1cc2c(Nc3ccc(F)c(Cl)c3)ncnc2cn1: 96.6%
COc1ccc(S(=O)(=O)N(CCO)c2ccccc2CN(C)CC=Cc2ccc(Cl)cc2)cc1: 99.7%
Fc1ccc(-c2nc3n(c2-c2ccncc2)CCS3)cc1: 82.6%
Nc1ncnc2c1cnn2-c1ccccc1: 99.5%
CCc1[nH]c(-c2ccc(OC)cc2)nc1-c1ccncc1: 84.5%
Nc1nccc(-c2c(-c3ccc(F)cc3)ncn2C2CCNCC2)n1: 95.3%
O=C1Cc2c([nH]c3ccc([N+](=O)[O-])cc23)-c2ccccc2N1: 85.1%
Cc1ccc(NC2=CC(=O)c3sc(C)nc3C2=O)cc1: 114%
O=S(=O)(NCCNC/C=C/c1ccc(Br)cc1)c1cccc2cnccc12: 102%
CC[n+]1c(/C=C/N(C)c2ccccc2)n(-c2ccccc2)c2ccc(-c3nc4ccccc4s3)cc21: 90.9%
NC(=O)c1ccc(N(C(N)=O)c2c(F)cccc2F)nc1-c1ccc(F)cc1F: 104%
Nc1nc(Nc2ccc(S(N)(=O)=O)cc2)nn1C(=O)c1c(F)cccc1F: 62.5%
N#CC(=C(N)Sc1ccc(N)cc1)c1ccccc1C(F)(F)F: 99.6%
CC(C)(C)n1nc(Cc2cccc3ccccc23)c2c(N)ncnc21: 99.2%

Block 3
Organism: Plasmodium berghei
Action: inhibitor
Cell line: Huh-7
Strain: GFP-expressing sporozoites, liver stage
Tested at: 10 µM
Time: 24 h
Relative to: untreated control
Measurement: infection rate
O=C1CN(/N=C/c2ccc(-c3ccc([N+](=O)[O-])cc3)o2)C(=O)N1: 102%
CCCCCCCCCCCCCCCC(=O)OC[C@@H](NC(=O)C(Cl)Cl)[C@H](O)c1ccc([N+](=O)[O-])cc1: 46.5%
NC(=O)c1cc[n+](CC2=C(C(=O)O)N3C(=O)[C@@H](NC(=O)[C@@H](c4ccccc4)S(=O)(=O)[O-])[C@H]3SC2)cc1: 107%
CCN(CC)CCNC(=O)c1ccc(NC(C)=O)cc1: 75.1%
CCn1nc(C(=O)O)c(=O)c2cc3c(cc21)OCO3: 113%
Nc1nc(/C(=C/CC(=O)O)C(=O)N[C@@H]2C(=O)N3C(C(=O)O)=CCS[C@H]23)cs1: 107%
COC(=O)[C@H](Cc1ccccc1)NC(=O)[C@@H](N)CC(=O)O: 83.8%
CC(C)NCC(O)COc1ccc(COCCOC(C)C)cc1 (stereo not shown): 103%
O=C1c2c(O)cccc2Cc2cccc(O)c21: 122%
Cc1nc(C)c(Cl)c(O)c1Cl: 23.2%
C[C@H]1[C@H](NC(=O)/C(=N\OC(C)(C)C(=O)O)c2csc(N)n2)C(=O)N1S(=O)(=O)O: 93%
CC(C)(C)c1ccc(C(O)CCCN2CCC(C(O)(c3ccccc3)c3ccccc3)CC2)cc1 (stereo not shown): 4.89%
CN(C)c1ccc(C(=C2C=CC(=[N+](C)C)C=C2)c2ccc(N(C)C)cc2)cc1: 0.23%
O=C1CN2Cc3c(ccc(Cl)c3Cl)N=C2N1: 99.8%
CCCC1O[C@@H]2C[C@H]3[C@@H]4CCC5=CC(=O)C=C[C@]5(C)[C@H]4[C@@H](O)C[C@]3(C)[C@]2(C(=O)CO)O1 (stereo partly shown): 8.3%

Block 4
Target: Eukaryotic initiation factor 4A-I (EIF4A1, Homo sapiens, UniProt P60842)
Chain of UniProt P60842 (whole entry, looked up): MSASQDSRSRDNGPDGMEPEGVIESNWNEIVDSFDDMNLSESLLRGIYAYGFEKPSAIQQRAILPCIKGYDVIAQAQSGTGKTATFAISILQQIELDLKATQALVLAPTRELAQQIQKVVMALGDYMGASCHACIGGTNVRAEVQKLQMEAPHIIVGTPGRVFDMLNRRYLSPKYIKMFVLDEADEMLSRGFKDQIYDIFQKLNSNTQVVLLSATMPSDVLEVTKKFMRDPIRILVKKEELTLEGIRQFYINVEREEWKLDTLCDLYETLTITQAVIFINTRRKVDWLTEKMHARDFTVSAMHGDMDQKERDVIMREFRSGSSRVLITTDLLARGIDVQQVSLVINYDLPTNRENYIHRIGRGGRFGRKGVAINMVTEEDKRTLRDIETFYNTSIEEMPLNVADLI
Observed: RNA clamping
Technique: fluorescence polarization
Tested at: concentration not given
Setting: mean of two replicates
Added: FAM-labelled poly r(AG)8 RNA
Measurement: fluorescence polarization change
COc1ccc([C@@]23Oc4cc(OC)cc(OC)c4[C@]2(O)[C@H](O)[C@H](C(=O)c2ccccc2)[C@H]3c2ccccc2)cc1: 6.8 mP
COc1cc(OC)c2c(c1)O[C@@]1(c3ccc(OC)c(O)c3)[C@H](c3ccccc3)[C@@H](C(=O)N(C)OC)[C@@H](O)[C@@]21O: 61.3 mP
COC(=O)/C=C/Oc1nc(-c2ccccc2)nc2c1[C@@H](c1ccccc1)[C@]1(c3ccc(OC)cc3)Oc3cc(OC)cc(OC)c3[C@]21O: -2.6 mP
COc1ccc([C@]23[C@@H](c4ccccc4)C[C@@H](O)[C@@]2(O)c2c(F)cccc2N3C)cc1: 10.3 mP
COC(=O)CCCn1c(-c2ccccc2)nc2c(c1=O)[C@@H](c1ccccc1)[C@]1(c3ccc(OC)cc3)Oc3cc(OC)cc(OC)c3[C@]21O: 25.8 mP
COC(=O)/C=C/n1c(-c2ccccc2)nc2c(c1=O)[C@@H](c1ccccc1)[C@]1(c3ccc(OC)cc3)Oc3cc(OC)cc(OC)c3[C@]21O: 10.5 mP
COc1ccc([C@H]2[C@H](C(=O)N(C)C)[C@@H](O)[C@@]3(O)c4c(OC)cc(OC)cc4O[C@@]23c2ccc(OC)cc2)cc1: 4.3 mP
COc1ccc([C@@]23Oc4cc(OC)cc(OC)c4[C@]2(O)[C@H](O)[C@H](CN(C)C)[C@H]3c2ccccc2)cc1: 70.7 mP
COC(=O)[C@@H]1[C@@H](c2ccccc2)[C@]2(c3ccc(OC)cc3)Oc3cc(OC)cc(OC)c3[C@@]23NC(c2ccc(OC)cc2)=N[C@@]13O: 39 mP
COC(=O)[C@@H]1[C@@H](c2ccccc2)[C@]2(c3ccc(OC)cc3)Oc3cc(OC)cc(OC)c3[C@@]23NC(c2ccc(C(F)(F)F)cc2)=N[C@@]13O: 9.4 mP
COC(=O)[C@H]1C(=O)[C@@]2(OC)c3c(OC)cc(OC)cc3O[C@@]2(c2ccc(OC)cc2)[C@@H]1c1ccccc1: 7.1 mP
COc1ccc([C@@]23Oc4cc(OC)cc(OC)c4[C@]2(O)c2[nH]nc(O)c2[C@H]3c2ccccc2)cc1: 37.1 mP
COc1ccc([C@@]23Oc4cc(OC)cc(OC)c4[C@]2(O)[C@H](O)[C@H](C(=O)c2ccco2)[C@H]3c2ccc(Br)cc2)cc1: 6.3 mP
C#CCOc1nc(-c2ccccc2)nc2c1[C@@H](c1ccccc1)[C@]1(c3ccc(OC)cc3)Oc3cc(OCC(=O)OCC)cc(OC)c3[C@]21OCC(=O)OCC: -5.9 mP
COC(=O)[C@@H]1[C@@H](c2ccccc2)[C@]2(c3ccc(OC)cc3)Oc3cc(OC)cc(OC)c3[C@@]23OC(c2ccccc2Cl)=N[C@@]13O: -8.2 mP
COC(=O)[C@@H]1[C@@H](c2ccccc2)[C@]2(c3ccc(OC)cc3)Oc3cc(OC)cc(OC)c3[C@@]23NC(c2ccc(Br)cc2)=N[C@@]13O: 10.7 mP
O[C@@H]1C2(O)c3ccccc3O[C@]1(c1ccccc1)[C@@H](/C=C/c1ccccc1)[C@@H]2c1ccccc1: 6.8 mP
